# Results gathered from unrelated publications.
# Lines come from different studies, so protocols differ. ± marks the error that the study gave.
Compound,cell line,assay,test system,setting,how to read,measurement,result
CC(c1ccccc1)(c1ccc(O)cc1)c1ccc(O)cc1,"HepG2 spheroids, dissociated",annexin V-FITC/PI flow cytometry,,"1 µM, 24 h",,early apoptotic cells,19.1 ± 2.8%
CC[C@H](C)[C@H]1C(=O)N2CCC[C@H]2C(=O)N[C@@H](CO)C(=O)N[C@H]([C@H](C)O)C(=O)N[C@H](Cc2ccc(O)cc2)C(=O)N[C@@H](CC(C)C)C(=O)NCC(=O)N[C@@H](C(C)C)C(=O)N[C@@H](C)C(=O)N[C@@H](Cc2ccccc2)C(=O)N2CCC[C@H]2C(=O)N1C,MDCK-MDR1,,"HBSS, 0.25% BSA",2 h,,Papp A to B,0.01 ×10⁻⁶ cm/s
COc1ccc(C(C)(C)c2cnc(SCCOc3ccc(-n4ccnc4)cc3)n2-c2ccc(F)cc2)cc1OC,sandwich-cultured human hepatocytes,"gene induction, inducer, item: CYP3A4 mRNA",,48 h,relative to: vehicle,induction Emax,7.69 fold
C=C[C@@](C)(/C=C/c1ccc(O)cc1)CCC=C(C)C,Vero E6,,,50 µM,,cytotoxicity,0%
Oc1ccc(C2(c3ccc(O)cc3)c3ccccc3-c3ccccc32)cc1,"HepG2 spheroids, dissociated",annexin V-FITC/PI flow cytometry,,"10 µM, 96 h",,viable cells,19%
O=c1c(O[C@@H]2O[C@H](CO)[C@H](O)[C@H](O)[C@H]2O)c(-c2ccc(O)c(O)c2)oc2cc(O)cc(O)c12,Caco-2,CCK-8,,"1.25 µM, 24 h",,viability,104%
Oc1ccc(C(c2ccc(O)cc2)(C(F)(F)F)C(F)(F)F)cc1,HepG2 spheroids,"flow cytometry, item: phospho-histone H3",,"10 µM, 96 h",relative to: solvent control,mitotic cells,1.59 fold
O=C(Nc1cccnn1)N1CCC(=Cc2cccc(Oc3ccc(C(F)(F)F)cn3)c2)CC1,COS cells expressing human FAAH,,COS cell culture supernatant,"100 nM, 3 h",,concentration,64.4 ± 1.7 nM
O=C(CC1NCCCC1O)Cn1cnc2cc(Br)c(Cl)cc2c1=O (stereo not shown),mouse embryonic fibroblasts,ELISA,,"20 nM, 2 h",,intracellular concentration,~800 nM
CC(C)C[C@@H](NC(=O)[C@H](C)NC(=O)CNC(=O)[C@@H](NC=O)C(C)C)C(=O)N[C@@H](C)C(=O)N[C@@H](C(=O)N[C@H](C(=O)N[C@@H](C(=O)N[C@@H](Cc1c[nH]c2ccccc12)C(=O)N[C@H](CC(C)C)C(=O)N[C@@H](Cc1cccc2cc[nH]c12)C(=O)N[C@H](CC(C)C)C(=O)N[C@@H](Cc1c[nH]c2ccccc12)C(=O)N[C@H](CC(C)C)C(=O)N[C@@H](Cc1c[nH]c2ccccc12)C(=O)NCCO)C(C)C)C(C)C)C(C)C,P388 (mouse),"cytotoxicity, WST-1",,92 h,,IC50,0.00238 ± 0.00053 µM
C=CC(=O)N1C/C(=C\c2ccc([N+](=O)[O-])cc2)C(=O)/C(=C/c2ccc([N+](=O)[O-])cc2)C1,ARPE-19 HiBiT-fibulin-3 knock-in,"cell viability, CellTiter-Glo",,"1.66 µM, 48 h",relative to: vehicle,ATP level reduction,-5.54%
CN(C(=O)n1cnc(-c2ccc[n+]([O-])c2)c1)C1CCCCC1,COS cells expressing human FAAH,,COS cell culture supernatant,"100 nM, 1 h",,concentration,100.5 ± 1 nM
O=C(Nc1cnccc1Cl)N1CCN(Cc2ccc3c(c2)OC(F)(F)O3)CC1,COS cells expressing human FAAH,,,"100 nM, 0 h",,supernatant concentration,84.4 ± 7.1 nM
O=C(O)C(F)(F)C(F)(F)C(F)(F)C(F)(F)C(F)(F)C(F)(F)C(F)(F)F,HEK293 wild-type,,kidney,,"basal, blood-to-cell",passive diffusion clearance,0.051 mL/min/106
COC(=O)c1ccc(NC(=O)CSc2nc(-c3ccccc3)cc(C(F)(F)F)c2C#N)cc1,MDA-MB-231,MTT,,"100 µM, 72 h",,viability,17 ± 1%
O=NN1CC2CC(C1)c1cc3nccnc3cc12,TK6 expressing CYP3A4,,,"50 µM, 4 h, without S9",relative to: vehicle,relative survival,84%
Cc1cc(C)nc(NC(=S)N2CCN(Cc3ccc(C(F)(F)F)cc3)CC2)c1,human cells,,,,,CC50,> 20 µM
O=C(Nc1cccnn1)N1CCC(=Cc2cccc(Oc3ccc(C(F)(F)F)cn3)c2)CC1,COS cells expressing human FAAH,,,"100 nM, 24 h",,supernatant concentration,49.4 ± 2.9 nM
O=c1ccc2ccccc2o1,HepaRG 3D spheroids,phospholipidosis,,"168 h, high-content imaging",,point of departure,562 µM
CC(C)C[C@@H](NC(=O)[C@H](C)NC(=O)CNC(=O)[C@@H](NC=O)C(C)C)C(=O)N[C@@H](C)C(=O)N[C@@H](C(=O)N[C@H](C(=O)N[C@@H](C(=O)N[C@@H](Cc1c[nH]c2ccccc12)C(=O)N[C@H](CC(C)C)C(=O)N[C@@H](Cc1cccc2[nH]ccc12)C(=O)N[C@H](CC(C)C)C(=O)N[C@@H](Cc1c[nH]c2ccccc12)C(=O)N[C@H](CC(C)C)C(=O)N[C@@H](Cc1c[nH]c2ccccc12)C(=O)NCCO)C(C)C)C(C)C)C(C)C,P388 (mouse),"cytotoxicity, WST-1",,92 h,,IC50,0.00645 ± 0.00022 µM
FC(F)(F)c1ccc(CNc2ccc(Cc3c[nH]c4ncc(Cl)cc34)cn2)cn1,human cells,,,,,CC50,18.2 µM
CCSc1nc2ccccc2n1Cc1nnc(-c2ccc(Cl)cc2)o1,neutrophils,,fresh heparinized human blood,"200 µg/mL, 30 min",,viability,31.1 ± 5.2%
O=S(=O)(c1ccc(O)cc1)c1ccc(O)cc1,"HepG2 spheroids, dissociated",annexin V-FITC/PI flow cytometry,,"0.1 µM, 24 h",,early apoptotic cells,10.6 ± 1.91%
COc1ccc(C[C@@H]2c3cc(Oc4cc(C[C@@H]5c6cc(O)c(OC)cc6CCN5C)ccc4O)c(OC)cc3CCN2C)cc1,Vero E6,,,12.5 µM,,cytotoxicity,0%
C[C@@H](NC(=O)[C@@H](C)NC(=O)[C@H](CCCCNC(=O)c1ccc(S(=O)(=O)F)cc1)NC(=O)c1ccc(S(=O)(=O)F)cc1)C(=O)O,Caco-2,,,10 µM,,Papp,< 1 ×10⁻⁶ cm/s
Cc1cc(C(F)(F)F)c2c(N)c(C(=O)Nc3nccs3)sc2n1,MDA-MB-231,MTT,,"100 µM, 72 h",,viability,33 ± 6%
CC(C)[C@H]1C(=O)N[C@@H](CCCN=C(N)N)C(=O)NCC(=O)N[C@@H](CC(=O)O)C(=O)N[C@H](Cc2ccccc2)C(=O)N1C,Caco-2,,,200 µM,,Papp B to A,0.102 ×10⁻⁶ cm/s
O=C(NCCCN1CCCCCC1)c1ccc2c(c1)sc1nc(-c3ccccc3)cn12,"Vero E6, no virus","cytotoxicity, CellTiter-Glo",,,,AC50,7.94 µM
CCOC(=O)c1ccc(NC(=O)c2sc3nc(C)cc(-c4ccccc4)c3c2N)cc1,MDA-MB-231,MTT,,"100 µM, 72 h",,viability,40 ± 4%
CC(C)=CCc1c(O)ccc(C(=O)/C=C/c2ccc(O)cc2)c1O,Vero E6,,,100 µM,,cytotoxicity,0%
Nc1c(C(=O)Nc2cccnc2)sc2nc(-c3ccccc3)cc(C(F)(F)F)c12,MDA-MB-231,MTT,,"100 µM, 72 h",,viability,38 ± 1%
CC(C)C[C@@H]1NC(=O)[C@H](CCC(=O)O)NC(=O)[C@H]2CCCN2C(=O)[C@@H](N)CSSC[C@@H](C(=O)O)NC(=O)[C@@H]2CCCN2C(=O)[C@H](Cc2ccccc2)NC(=O)[C@H](CC(C)C)N(C)C(=O)[C@H]([C@@H](C)O)NC(=O)[C@H](C(C)C)NC1=O,MDCK-MDR1,,"HBSS, 0.25% BSA",2 h,,Papp A to B,0.16 ×10⁻⁶ cm/s
C/C=C(/C)C(=O)O[C@H]1C(C)=C2[C@H]([C@@H]1OC(=O)CCCCCCC)[C@@](C)(OC(C)=O)C[C@H](OC(=O)CCC)[C@@]1(O)[C@H]2OC(=O)[C@@]1(C)O,MDA-MB-231,,,,toxic above this concentration,maximum lethal concentration,> 10 µM
O=C(O[C@@H]1Cc2c(O)cc(O)cc2O[C@@H]1c1cc(O)c(O)c(O)c1)c1cc(O)c(O)c(O)c1,Vero E6,,,100 µM,,cytotoxicity,100%
COc1ccc(NC(=O)CSc2nc(-c3ccccc3)cc(C(F)(F)F)c2C#N)cc1,MDA-MB-231,MTT,,"100 µM, 72 h",,viability,61 ± 8%
CC(C)C[C@H]1C(=O)O[C@H](Cc2ccc(N3CCOCC3)cc2)C(=O)N(C)[C@@H](CC(C)C)C(=O)O[C@H](C)C(=O)N(C)[C@@H](CC(C)C)C(=O)O[C@H](Cc2ccc(N3CCOCC3)cc2)C(=O)N(C)[C@@H](CC(C)C)C(=O)O[C@H](C)C(=O)N1C,MDCK-MDR1,,,,,Papp,0.8 ×10⁻⁶ cm/s
Cc1cc(C(C)(C)c2ccc(O)c(C)c2)ccc1O,HepG2 spheroids,"flow cytometry, item: phospho-histone H3",,"40 µM, 24 h",relative to: solvent control,mitotic cells,1.48 fold

# Repeated from above:
Compound,cell line,assay,test system,setting,how to read,measurement,result
O=S(=O)(c1ccc(O)cc1)c1ccc(O)cc1,"HepG2 spheroids, dissociated",annexin V-FITC/PI flow cytometry,,"0.1 µM, 24 h",,early apoptotic cells,10.6 ± 1.91%
COC(=O)c1ccc(NC(=O)CSc2nc(-c3ccccc3)cc(C(F)(F)F)c2C#N)cc1,MDA-MB-231,MTT,,"100 µM, 72 h",,viability,17 ± 1%
Oc1ccc(C2(c3ccc(O)cc3)c3ccccc3-c3ccccc32)cc1,"HepG2 spheroids, dissociated",annexin V-FITC/PI flow cytometry,,"10 µM, 96 h",,viable cells,19%
CC(C)=CCc1c(O)ccc(C(=O)/C=C/c2ccc(O)cc2)c1O,Vero E6,,,100 µM,,cytotoxicity,0%
C=C[C@@](C)(/C=C/c1ccc(O)cc1)CCC=C(C)C,Vero E6,,,50 µM,,cytotoxicity,0%
